Published values gathered from unrelated publications.
Every numbered part comes from another study and shows a few of its results, in no order. Substitutions count along the parent as printed.

Block 1
Target: ABI1, truncated, D143A, DHFR fusion (Arabidopsis thaliana)
Method: DHFR PCA, deep sequencing
Matrix: yeast
Notes: methotrexate growth selection, single substitutions
Added: (+)-ABA 0.39 µM
Reference: wild-type fitted maximum
Reading: higher = stronger binding
Parent: PYL1, truncated, DHFR fusion (Arabidopsis thaliana); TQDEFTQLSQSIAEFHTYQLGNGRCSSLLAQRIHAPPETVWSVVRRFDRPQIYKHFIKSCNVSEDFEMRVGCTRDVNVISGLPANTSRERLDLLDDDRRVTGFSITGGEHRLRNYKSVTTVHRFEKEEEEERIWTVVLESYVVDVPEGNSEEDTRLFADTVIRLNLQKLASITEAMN; partner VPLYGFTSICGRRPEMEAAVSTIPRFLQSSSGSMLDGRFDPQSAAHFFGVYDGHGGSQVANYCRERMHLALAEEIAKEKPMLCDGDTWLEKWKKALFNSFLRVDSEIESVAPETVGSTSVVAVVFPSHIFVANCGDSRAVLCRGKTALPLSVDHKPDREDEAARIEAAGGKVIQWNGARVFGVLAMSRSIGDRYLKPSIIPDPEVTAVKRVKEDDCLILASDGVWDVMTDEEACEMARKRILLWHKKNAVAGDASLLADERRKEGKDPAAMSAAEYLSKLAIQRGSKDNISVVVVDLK
Change	relative binding score [%]
R46P	-4.88
V44W	-7.27
R88N	22.4
S63A	63.3
A13I	17.8
C72E	34.1
D48C	2.18
R123K	60.8
F15P	-5.41

Block 2
Target: CCNB3, cyclin fold, Cln2 fusion (human)
Method: yeast growth competition, sequencing
Matrix: yeast
Notes: weak parent motif
Reference: not given
Reading: higher = stronger binding
Parent: NPAT docking peptide (human); PCHRRVLCFDSTT; partner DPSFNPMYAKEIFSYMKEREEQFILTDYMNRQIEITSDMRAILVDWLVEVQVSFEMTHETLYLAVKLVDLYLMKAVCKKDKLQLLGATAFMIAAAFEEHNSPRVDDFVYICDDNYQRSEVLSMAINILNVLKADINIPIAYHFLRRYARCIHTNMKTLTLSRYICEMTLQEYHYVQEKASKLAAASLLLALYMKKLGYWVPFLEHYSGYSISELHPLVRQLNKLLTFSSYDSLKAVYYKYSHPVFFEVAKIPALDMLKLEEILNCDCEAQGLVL
Change	normalised enrichment score
PCHRRVACFDSTT [L7A]	0.025
PCHRRVLCADSTT [F9A]	-0.107
PCHRRVLAFDSTT [C8A]	-0.0209
PAHRRVLCFDSTT [C2A]	0.63
PCHRRALCFDSTT [V6A]	0.18
PCHARVLCFDSTT [R4A]	0.706
PCHRKVLCFDSTT [R5K]	0.659

Block 3
Target: RNA binding protein fox-1 homolog 2, RRM domain, GST-SBP tag (RBFOX2, Homo sapiens, UniProt O43251-10, residues 100-194)
Method: RNA Bind-n-Seq
Form: RNA
Matrix: in vitro
Tested at: 365 nM
Notes: natural RNA segment, single round, ends assumed
Reference: no-protein control
Reading: higher = stronger binding
Construct (chain): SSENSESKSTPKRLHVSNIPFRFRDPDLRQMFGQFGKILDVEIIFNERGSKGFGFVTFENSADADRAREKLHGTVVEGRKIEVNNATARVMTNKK
Sequence	RBNS enrichment (R)
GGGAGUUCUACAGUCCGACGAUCAAGAUAGUGUAACUUGCUUAAAUUUCUUAUGUGACAUUAACAAAUAAAAAAGCUCUUUUAAUAUUGAUAUACUGUCCUUUUUAACGCUUUAAAAACAGAUUUUGAGGGGAUGGAAUUCUCGGGUGCCAA	0.38
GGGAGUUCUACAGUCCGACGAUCGACAUUCACAUCAUUUCACUCUGGUCUGAGUGGUGGCCUGAGAACCAUGGUGGCAUGGACCACCCUCAUCCAUGCAACUCCAGGCCCCAUGGGAACGGAUGUGGAAGGAAUGGAAUUCUCGGGUGCCAA	0.767
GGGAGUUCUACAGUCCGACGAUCCCUCCAUCAUUUGGUUUCCUCUUGGCUUUGGGGAUACUUCUAAAUUUUGGGAGCUCCUCCAUCUCCAAUGGCUGGGAUUUGUGGCAGGGAUUCCACUCAGAACCUCUCUGUGGAAUUCUCGGGUGCCAA	0.28
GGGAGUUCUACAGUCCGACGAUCGGCAGUCCCAAACACCAGAGUCUGUACUUUUCUAUGACACAGCUCAAAUUAAAGUAGGGCACAUGCCAAGGAGGUUCUCACCUCCCUAAAGAAGGGACUUGAAUUUUAGGUGGAAUUCUCGGGUGCCAA	0.327
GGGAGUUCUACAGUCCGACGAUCAAUUAUUGGCUGAGCCCACGGUCCCCUCAGCAGGGAUGCGAUGGUCUCUGAAUCAGUGUGCAGCUGGGGUCCCAGGCAGCGCUGCCUGGGGGCUGGGGAGGGGAGGCCCAUGGAAUUCUCGGGUGCCAA	0.531
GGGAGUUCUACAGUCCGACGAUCCUGGAACCUGUCCUGCACUCUUCCUGCAGUUAGGUAACUGGGGGCAUAGUCAUUCCAGUGGAGAGUGGAAGUAACCUCAUGGUGAUUUUUAACCCUAAUUUCUCUCUGACUGGAAUUCUCGGGUGCCAA	0.297
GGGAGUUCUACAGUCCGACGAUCGGCCAUUACUUUCUUUCUCUAAAGUCUCAGGAUGUCUGGAAGCAAGGAAAGACAAAAGACUUGAAGCACCGGGUGCAUGCUGUGUGUCACAAGUGAGGUGGAGAGUUGGCUGGAAUUCUCGGGUGCCAA	3.36
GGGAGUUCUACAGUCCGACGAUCCAGCUUCGGGGCAAGUGAGACAAUCACAGCUCCUCGCUGCGUCUCCAUCAACACUGCGCCGGGUACCAUGGACGGCCCCGUCAGCCACACCUGUCAGCCCAAGCAGAGUGUGGAAUUCUCGGGUGCCAA	0.327
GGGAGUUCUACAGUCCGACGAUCUUGCAGUGAUAUUUAGUUAAUGAUUUGUUUUGGAAAACAUGCAGUUAGGAGUAUUUUUGUAUUUUGUCAGAUGUUUAGGAGACAGACUUUCGGGUCAUGUUUCUUGUCUUUGGAAUUCUCGGGUGCCAA	0.326
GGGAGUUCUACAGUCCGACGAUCUAUACACUUAAUGUUGUUAUUGUAUGUUGUUACUGAAGUACUUAGAUUUUUAAAAUUUCAAAUCCUAAAUCACUUCUUGUAGGAGGGUUUUCAUUAACUGCAGUAUAUACUGGAAUUCUCGGGUGCCAA	0.688
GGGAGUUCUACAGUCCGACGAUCUAUAGCUUGCCAGUAUUGUUAAGGUAUCCAAAGCCUUUCUAGAUAGAGACAGGAACAUUGACUUGAACAUAUGUAUGUAAGAGUCCAGGCUCAUUCUGAGUUGAUGAAAAUGGAAUUCUCGGGUGCCAA	2.01
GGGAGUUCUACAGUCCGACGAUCCCUCUUCCUCUGCCGGGAGGGUGUUUUCAACUCCAAACCCCAGAGAGGGGUUGUAGAUUGGGUCCAGCUUUGCUUCAGUGUGUGGAAAUGUCUCGUGGGGUGGCAUCGGGUGGAAUUCUCGGGUGCCAA	1.26

Block 4
Target: RING finger protein unkempt homolog, zinc fingers 1-6, SBP tag (UNK, Homo sapiens, UniProt Q9C0B0, residues 30-357)
UniProt Q9C0B0, sequence (30-357, looked up): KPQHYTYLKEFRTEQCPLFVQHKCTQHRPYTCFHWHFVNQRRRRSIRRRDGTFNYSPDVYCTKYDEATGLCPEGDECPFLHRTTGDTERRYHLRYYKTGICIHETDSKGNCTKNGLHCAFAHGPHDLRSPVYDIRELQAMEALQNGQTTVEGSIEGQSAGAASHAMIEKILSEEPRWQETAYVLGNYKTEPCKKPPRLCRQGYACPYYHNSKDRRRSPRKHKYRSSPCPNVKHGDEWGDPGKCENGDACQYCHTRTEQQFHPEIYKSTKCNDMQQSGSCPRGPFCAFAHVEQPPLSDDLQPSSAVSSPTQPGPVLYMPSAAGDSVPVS
Method: RNA Bind-n-Seq
Form: RNA
Matrix: in vitro
Tested at: 100 nM
Notes: RNA with constant flanks, vertebrate orthologous sites, ends assumed
Reference: input RNA pool
Reading: higher = stronger binding
Sequence	bound/input enrichment [ratio]
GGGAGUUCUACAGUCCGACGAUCAUGUUCAGUCCCCUGGGCUGGGACAGAUUUUUUUAAUGUCUUGAAACUUAACUCUGCUUGUAGGAGACUUUAACCUUUUUGUCUUUUUUUUUUUUUUUUUUUUAAAAACAACCUCCACCUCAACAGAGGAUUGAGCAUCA	1.42
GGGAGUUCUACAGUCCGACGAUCUAAAGUUAAUCAGUUGACUUGUAUUCUGAUGAUGUAACAUUGUGUAGCUUUUGUAUAAAAACAUGAAUUGGAAAUCGUCCAAAUAUCAAGCUAUUUUCUUGCUUUAAAGUUACUGAUGUGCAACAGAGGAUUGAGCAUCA	0.164
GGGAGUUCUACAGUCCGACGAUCCUACUAUAAACAACUCAGGGCAGUAUUCUCGAUAUCCUUACAGUAACCUAAAUCAGGGAUUAGUUAACAAUACAGGGAUGAAUCAGAAUUUAGGCCUUACAAAUAAUACUCCAAUGAAUCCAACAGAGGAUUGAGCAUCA	1.26
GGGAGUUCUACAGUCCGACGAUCCAUGAUCUUGUUACUGUGAUAUUUUAAAUAUCCACAGUACUCACUUUUUCCAAAUGAUCCUAGUAAUUGCCUAGAAAUAUCUUUCUCUUACCUGUUAUUUAUCAAUUUUUCCCAGUAUUUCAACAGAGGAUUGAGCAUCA	1.23
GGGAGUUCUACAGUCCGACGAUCGUGCAAGGAGAUUAUUCCAACUAGUGAAUUUAUUAACAGUAAAUUGACAGCAAAGGCAAACAGGCAGCUUCAAGAUCCUUUAGUAAUCAUGACCGGAAACAUCCCUACAUGGCUUACUGACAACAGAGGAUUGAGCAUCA	0.713
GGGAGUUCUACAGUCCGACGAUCAAGAAAAGGAGUAGUCUAGGCAGGGGUAACCAUUAAUUUAUUUUAAAGAAAUCCUGAAAAUCCUAUUCAUAUUAGUUGGAGAAUUUAAAUAAGCAUCUUUGAGGUGAUUCUAAUAGUCUGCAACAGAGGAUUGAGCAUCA	0.798
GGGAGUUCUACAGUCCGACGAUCAUCUUCAGGAUGAAGCUCUUACAUCAGGUAGUCAAGAGUCUGGAGAACAGAUGGGUUGAACAGUUGUAUUUAUAAGUUAGUCUCUGUGGAUUACAAUCCUUUAUAUAUCAACAUCACAGUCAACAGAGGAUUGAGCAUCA	0.523
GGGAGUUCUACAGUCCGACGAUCGUGUUGGUGCAGGAUAGAGGGGAGGGAGAGGCAGGAAAGUGUGGAAUCUCUGGGGUGUUACAAGUAGGUAGUGGGCAUAAUUAGUUCUAAGUGGCCCUUUAUGUUAAAAACCCCUGGAAGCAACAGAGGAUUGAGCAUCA	1.42
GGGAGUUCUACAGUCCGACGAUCAGGUUGGGGGAAACACUCCAUGUUAGUACCAAGAGCAGUCACUUGGGCUAAAUCUGACAUCAUGACUCCCCAAGGGCACUUCCCACUUUGAGUAGGAUCUGACUAGCCUCUCAGAUUUGCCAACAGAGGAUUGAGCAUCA	0.165
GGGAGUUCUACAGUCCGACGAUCUGAUCAUAUGUAGAGAAAAAUUUUCAUUGACCUCCUUGUGAAAUUCCCUAGCAGUUUAUUUAGAAUCUUAAUUUUUCUAAUACAAGUUUACUUCUUAGUCAUUUUAGCCCAUAAUUAAAACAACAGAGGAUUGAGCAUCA	2.04
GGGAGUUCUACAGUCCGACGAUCUCAUCUGACUGGAUGAAGACUGUUUCCAAGUUAUAACCAAACAAAUAGCUCCAUGGACUUUAGGAAUUAUAUGAUGAGAAAUGAAAAUUUGGAACCAUUGCCCAAAAACUGGGAGAUGGCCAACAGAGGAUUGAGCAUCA	0.786

Block 5
Target: Interferon regulatory factor 5, full length, phosphomimetic (IRF5, Homo sapiens, UniProt Q13568-2, residues 1-514, K96S/S451D/S453D/S456D/S462D)
Method: protein-binding microarray
Form: double-stranded DNA, one strand shown
Matrix: in vitro
Tested at: 250 nM
Notes: 60-bp whole probe
Added: salmon DNA 0.4 mg/ml
Reference: random background probes
Reading: higher = stronger binding
Constant ends, left off below: GCCTAGCAC … GTCTTGATTCGCTTGACGCTGCTG
Sequence	log fluorescence
GACGGTATCGGGTTTCGTGACGTGCTA	3.06 z-score
GACGGTTTACTTTTCCTGACGTGCTAG	0.594 z-score
TCAATTTTGTGTCTGGGACTGTGCTAG	0.149 z-score
TCAATTAGAATTTTCATACTGTGCTAG	1.14 z-score
GGCGGACTGCTTTTCCTGACGTGCTAG	-0.614 z-score
TCACCTCTCTGTCCCCCACTGTGCTAG	0.213 z-score
GACGGTATCCTTCTCCCGACGTGCTAG	0.309 z-score
TTAGGTATGGGTTTCGGTTAGTGCTAG	7.89 z-score
GACGATTTCAGTATCTAGACGTGCTAG	1.76 z-score
TCATAGTTGTGTCTTGCACTGTGCTAG	0.0652 z-score
TTAGATATCGGGTACCGATTAGTGCTA	2.57 z-score
TTAGGACTGCTTCTCCGTTAGTGCTAG	-0.068 z-score
GACGGTTCCCTTTTCCGGACGTGCTAG	0.097 z-score
TCACTTATTGCTTCCTCACTGTGCTAG	0.662 z-score
TTCGGTCTCGGTTTCGGTTAGTGCTAG	9.01 z-score
TTAGAGTTCAGACTGGATTAGTGCTAG	-0.279 z-score
TCACATCTCATATAAATAACTGTGCTA	0.717 z-score
GACGGTATCGGGTTCCGGGACGTGCTA	2.35 z-score
GACGGTTTCGACTATCGGCACGTGCTA	7.1 z-score
ACTCTAATCTCACTCTGTCCGTGCTAG	0.377 z-score
GACGGACTGGGGTATCGGGTCGTGCTA	0.497 z-score
TTAGGTATCCTTCTCTTTTAGTGCTAG	0.681 z-score
GACGCTTTCGACTATCGGGACGTGCTA	7.51 z-score
GACGAACTGGGGTATCGATACGTGCTA	2.87 z-score
GAAGGTTTCGACTATCGGGACGTGCTA	6.96 z-score

Single results of other studies
Substance	target	test	system	conditions	how to read	measurement	result
PhoQ, residues 284 288 289 292 302 303 STVVAA	PhoP, residues 12 14 15 18 19 VQALL (Escherichia coli, UniProt P23836)	Sort-seq, measured: YFP reporter	E. coli	PhoQ-PhoP variant library, added: 10 µM Mg2+	reference: high Mg2+ state, higher = stronger signaling	fold induction	22.6
